Assay results of several laboratories.
“And” joins repeats or separate records; there may be more than shown.
Target: Glycogen synthase kinase-3 alpha (GSK3A, Homo sapiens, UniProt P49840)

Compound | assay | test system | conditions | scale | endpoint | result
N[C@H]1CC[C@H](Nc2nccc(-c3cccnc3Oc3ccc(NC(=O)NC4CC4)c4ccccc34)n2)CC1 | kinobead competition pulldown | HEK293/HCT116 lysate mixture | 10 µM, 1 h, 4 °C | lower = stronger competition | log2 LFQ intensity | 29.3 and 29.2 and 29.1
Cc1cccc(O[C@H]2CCC[C@@H](C(C)CNCc3ccncc3)C2)c1 (relative stereo) | enzyme activity, inhibitor | – | 10 µM | – | inhibition | -9%
COc1cc(Nc2nc(C)cc(-c3cnn4nc(OC)ccc34)n2)cc(C(F)(F)F)c1 | inhibitor | – | 1 µM | baseline: control | remaining activity | 100%
C=CC(=O)N1CCCC(n2c(=O)c3ncccc3n(Cc3ccc(Oc4ccccc4)cc3)c2=O)C1 (stereo not shown) | cell-free assay, competition with immobilised ligand | – | 1 µM | – | remaining binding | 98%
COCC12C(=O)NC3C4(C(OC)CC1O)C1CC5(O)C(OC)C(O)C(OC(C)=O)(C1C5OC(=O)c1ccccc1)C3(O)C(OC)C24 (stereo not shown) | kinase activity, inhibitor, ProQinase kinase profiling | – | 25 µM | baseline: control | remaining activity | 90% and 102%
O=C(Cc1ccc(OCc2ccccc2)cc1)NC1(C(=O)O)CCN(C(=O)c2ccc(-c3cccc(Cl)c3)cc2)CC1 | enzyme activity, inhibitor | – | 10 µM | – | activity vs control | 95%
COc1ccc(NC(=O)Nc2ccc3c(c2)C(=O)N(C(C)CO)CC(C)C(CN(C)Cc2ccc4c(c2)OCO4)O3)cc1 (stereo not shown) | kinase activity, KinaseProfiler | – | 0.03 µM, species human | baseline: control | remaining activity | 98%
NC(=O)C[C@H]1CCc2sc3ncnc(O[C@H]4CC[C@H](N5CCOCC5)CC4)c3c21 | enzyme activity, inhibitor | – | 10 µM | – | inhibition | 20%
Nc1ncc(-c2cc(-c3cnn(CC(F)(F)F)c3)ncc2F)nc1C(=O)NC1CNCC(F)C1 (stereo not shown) | enzyme activity | – | 1 µM | baseline: DMSO control | remaining activity | 80.1%
O=C=[N][Ru-4]123([n]4c5ccc(O)cc5c5c6c(c7cc(F)c[n+]1c7c54)C(=O)NC6=O)[S+]1CC[S+]2CC[S+]3CC1 (stereo not shown) | enzyme activity | – | 100 nM, human enzyme, added: 10 µM ATP | baseline: untreated | remaining activity | 58%
CCn1cc(C(=O)O)c(=O)c2c(N)c(F)c(NC3CCCCC3)cc21 | enzyme activity, inhibitor | – | 0.1 µM | – | inhibition | > 70%
O=C(Nc1cc(-c2ccnc3[nH]ccc23)c(Cl)cn1)[C@H]1CCC[C@@H](NC(=O)C(F)(F)F)C1 | binding, competition with immobilised ligand | – | 0.1 µM | – | remaining binding | 19%
COc1c(Cl)cccc1Nc1c(-c2ccncc2C#C[C@@]2(C)CCCN2C(=O)/C=C/CN(C)C)[nH]c2c1C(=O)NCC2 | cell-free assay, competition with immobilised ligand | – | 3 µM | – | remaining binding | 100%
C=CC(=O)Nc1cccc(-c2cnc3[nH]cc(C(=O)NC(C)(C)C)c3n2)c1 | enzyme activity, inhibitor | – | 0.1 µM | – | inhibition | 78%
COc1c(OCCCN2CCOCC2)ccc2c1N=C(NC(=O)c1cnc(N)nc1)N1CCN=C21 | kinase activity, inhibitor | – | 1 µM | baseline: untreated control | remaining activity | 122%
CN1CC[C@@H](COc2cnc(C#N)cc2-c2ccn3nc(NC(=O)C4CC4)cc3c2)C1 | enzyme activity, inhibitor | – | 1 µM | – | inhibition | 12%

A few entries again:
Compound | assay | test system | conditions | scale | endpoint | result
N[C@H]1CC[C@H](Nc2nccc(-c3cccnc3Oc3ccc(NC(=O)NC4CC4)c4ccccc34)n2)CC1 | kinobead competition pulldown | HEK293/HCT116 lysate mixture | 10 µM, 1 h, 4 °C | lower = stronger competition | log2 LFQ intensity | 29.3 and 29.2 and 29.1
Cc1cccc(O[C@H]2CCC[C@@H](C(C)CNCc3ccncc3)C2)c1 (relative stereo) | enzyme activity, inhibitor | – | 10 µM | – | inhibition | -9%
